# Measured values gathered from unrelated publications.
# Each line is one published result; not all experiments were run side by side. Numbers after ± are the reported error.
# Chain of UniProt Q15858 (whole entry, looked up): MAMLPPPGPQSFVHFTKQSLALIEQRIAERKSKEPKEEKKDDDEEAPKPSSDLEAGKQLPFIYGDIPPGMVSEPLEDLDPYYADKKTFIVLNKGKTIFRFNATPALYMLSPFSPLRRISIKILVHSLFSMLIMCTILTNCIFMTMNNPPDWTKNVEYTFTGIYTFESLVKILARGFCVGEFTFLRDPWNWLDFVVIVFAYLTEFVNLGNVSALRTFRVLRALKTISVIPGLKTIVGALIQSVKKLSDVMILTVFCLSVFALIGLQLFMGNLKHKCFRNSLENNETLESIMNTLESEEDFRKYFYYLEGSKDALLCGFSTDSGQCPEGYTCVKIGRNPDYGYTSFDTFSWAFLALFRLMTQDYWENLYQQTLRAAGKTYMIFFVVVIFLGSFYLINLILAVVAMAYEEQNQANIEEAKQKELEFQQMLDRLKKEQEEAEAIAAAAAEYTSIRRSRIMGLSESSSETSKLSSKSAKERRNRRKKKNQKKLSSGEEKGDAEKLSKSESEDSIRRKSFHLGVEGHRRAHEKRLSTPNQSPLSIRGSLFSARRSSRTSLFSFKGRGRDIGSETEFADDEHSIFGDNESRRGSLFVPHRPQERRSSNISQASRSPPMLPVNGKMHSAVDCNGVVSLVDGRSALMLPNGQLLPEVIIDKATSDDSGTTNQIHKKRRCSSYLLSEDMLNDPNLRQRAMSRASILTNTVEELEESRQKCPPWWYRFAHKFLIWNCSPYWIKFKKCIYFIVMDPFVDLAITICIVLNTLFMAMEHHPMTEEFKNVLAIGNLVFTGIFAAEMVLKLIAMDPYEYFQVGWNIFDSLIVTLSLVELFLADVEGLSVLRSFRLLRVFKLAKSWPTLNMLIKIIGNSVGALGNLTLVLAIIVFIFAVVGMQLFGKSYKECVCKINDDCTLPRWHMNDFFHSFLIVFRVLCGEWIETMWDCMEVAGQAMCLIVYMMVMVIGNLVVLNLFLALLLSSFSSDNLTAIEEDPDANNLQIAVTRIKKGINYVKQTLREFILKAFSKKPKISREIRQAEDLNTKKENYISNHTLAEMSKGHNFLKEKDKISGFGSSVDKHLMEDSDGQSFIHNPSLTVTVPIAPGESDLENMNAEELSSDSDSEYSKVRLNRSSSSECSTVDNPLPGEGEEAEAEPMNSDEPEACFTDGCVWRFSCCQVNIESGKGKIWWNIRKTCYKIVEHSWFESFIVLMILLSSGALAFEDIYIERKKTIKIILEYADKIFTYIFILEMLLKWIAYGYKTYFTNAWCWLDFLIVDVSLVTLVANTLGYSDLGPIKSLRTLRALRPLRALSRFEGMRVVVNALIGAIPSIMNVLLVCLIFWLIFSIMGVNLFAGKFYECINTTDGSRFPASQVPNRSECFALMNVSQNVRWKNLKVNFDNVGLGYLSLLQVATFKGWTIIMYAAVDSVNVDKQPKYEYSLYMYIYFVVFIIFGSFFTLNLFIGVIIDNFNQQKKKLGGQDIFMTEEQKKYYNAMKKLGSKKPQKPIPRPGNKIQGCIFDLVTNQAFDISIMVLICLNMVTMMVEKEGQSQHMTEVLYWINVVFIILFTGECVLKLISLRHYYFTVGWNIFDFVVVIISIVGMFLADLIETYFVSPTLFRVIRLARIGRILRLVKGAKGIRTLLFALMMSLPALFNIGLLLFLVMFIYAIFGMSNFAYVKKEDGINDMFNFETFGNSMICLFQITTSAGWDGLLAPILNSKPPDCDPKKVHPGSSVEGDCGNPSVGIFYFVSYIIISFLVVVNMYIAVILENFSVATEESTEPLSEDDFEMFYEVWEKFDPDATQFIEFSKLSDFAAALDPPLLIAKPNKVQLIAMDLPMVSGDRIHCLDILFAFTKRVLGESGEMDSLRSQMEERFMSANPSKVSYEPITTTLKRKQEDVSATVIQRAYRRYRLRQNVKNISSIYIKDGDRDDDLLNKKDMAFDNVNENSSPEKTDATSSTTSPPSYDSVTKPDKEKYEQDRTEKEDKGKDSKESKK
# Chain of UniProt P06493 (whole entry, looked up): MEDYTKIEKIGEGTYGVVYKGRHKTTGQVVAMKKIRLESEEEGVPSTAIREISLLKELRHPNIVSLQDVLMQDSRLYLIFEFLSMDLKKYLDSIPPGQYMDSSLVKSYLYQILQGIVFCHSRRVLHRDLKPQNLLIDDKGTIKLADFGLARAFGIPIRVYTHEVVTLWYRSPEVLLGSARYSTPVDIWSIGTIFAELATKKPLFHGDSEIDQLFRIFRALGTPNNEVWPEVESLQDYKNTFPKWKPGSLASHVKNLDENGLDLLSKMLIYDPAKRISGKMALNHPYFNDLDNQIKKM
# Chain of UniProt P21729 (whole entry, looked up): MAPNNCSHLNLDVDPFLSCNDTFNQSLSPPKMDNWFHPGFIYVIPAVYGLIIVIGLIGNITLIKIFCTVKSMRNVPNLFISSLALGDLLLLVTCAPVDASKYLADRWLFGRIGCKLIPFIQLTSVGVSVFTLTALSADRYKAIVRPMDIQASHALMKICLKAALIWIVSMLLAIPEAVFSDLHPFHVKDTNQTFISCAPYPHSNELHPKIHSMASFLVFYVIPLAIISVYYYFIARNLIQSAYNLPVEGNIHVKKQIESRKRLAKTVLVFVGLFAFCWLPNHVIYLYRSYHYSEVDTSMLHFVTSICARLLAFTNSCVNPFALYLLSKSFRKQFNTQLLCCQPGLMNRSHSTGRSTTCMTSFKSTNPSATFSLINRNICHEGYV
Compound,tested on,test,test system,conditions,endpoint,value
N=C(N)NCCC[C@@H]1NC(=O)[C@H](CCCCNC(=O)CNC(=O)CNC(=O)CNC(=O)CC[C@H](NC(=O)CCOCCOCCOCCOCCNC(=O)CC[C@H](NC(=O)CN2CCN(CC(=O)O)CCN(CC(=O)O)CCN(CC(=O)O)CC2)C(=O)NCCOCCOCCOCCOCCC(=O)N[C@@H](CCC(=O)NCC(=O)NCC(=O)NCC(=O)NCCCC[C@@H]2NC(=O)[C@@H](Cc3ccccc3)NC(=O)[C@H](CC(=O)O)NC(=O)CNC(=O)[C@H](CCCNC(=N)N)NC2=O)C(=O)NCC(=O)NCC(=O)NCC(=O)NCCCC[C@@H]2NC(=O)[C@@H](Cc3ccccc3)NC(=O)[C@H](CC(=O)O)NC(=O)CNC(=O)[C@H](CCCNC(=N)N)NC2=O)C(=O)NCC(=O)NCC(=O)NCC(=O)NCCCC[C@@H]2NC(=O)[C@@H](Cc3ccccc3)NC(=O)[C@H](CC(=O)O)NC(=O)CNC(=O)[C@H](CCCNC(=N)N)NC2=O)NC(=O)[C@@H](Cc2ccccc2)NC(=O)[C@H](CC(=O)O)NC(=O)CNC1=O [indium-111 labelled],,,"athymic nude mice, female, U-87 MG glioma xenograft, bone","intravenous, 3 µCi, 4 h",tissue uptake,1.24 ± 0.16 %ID/g
CC(=O)NC(Cc1ccc(Br)c(Cl)c1)C(=O)N[C@@H](C)C(=O)N1CCC[C@H]1C(=O)N1CCC[C@H]1C(=O)N[C@@H](CCC(=O)O)C(=O)N[C@@H](Cc1c[nH]cn1)C(=O)N[C@@H](CO)C(=O)N[C@H](C(=O)N[C@@H](C)C(N)=O)[C@@H](C)OP(=O)(O)O (stereo partly drawn),"Cyclin-dependent kinase 1, with cyclin E1 (CDK1, Homo sapiens, UniProt P06493)","enzyme activity, inhibitor",,10 µM,inhibition,0.77%
CCCC[C@H](NC(=O)CCCCCCCNC(=O)c1ccc(NN)nc1)C(=O)N[C@H]1CC(=O)NCCCC[C@@H](C(N)=O)NC(=O)[C@H](Cc2c[nH]c3ccccc23)NC(=O)[C@H](CCCNC(=N)N)NC(=O)[C@@H](Cc2ccccc2)NC(=O)[C@H](Cc2c[nH]cn2)NC1=O [technetium-99m labelled],,,"C57 mouse, B16/F1 melanoma, muscle","2 h, added: L-lysine 12 mg co-injected",tissue uptake,0.07 ± 0.06 %ID/g
CCCNC(=O)[C@H](CC(C)C)NC(=O)[C@H](Cc1c[nH]cn1)NC(=O)CNC(=O)[C@@H](NC(=O)[C@H](C)NC(=O)[C@H](Cc1c[nH]c2ccccc12)NC(=O)[C@H](CCC(N)=O)NC(=O)[C@@H](Cc1ccccc1)NC(=O)CCCCCNC(=O)CN1CCN(CC(=O)O)CCN(CC(=O)O)CCN(CC(=O)O)CC1)C(C)C [indium-111 labelled],"Gastrin-releasing peptide receptor (Mus musculus, UniProt P21729)","biodistribution, ligand","CF-1 mouse, small intestine","intravenous, 1 h",tissue uptake,0.9 ± 0.28 %ID/g
Cc1ccc(-c2ccccn2)cc1C(=O)NCCCCCCCCNC(=O)CNC(=O)CNC(=O)[C@H](CCCCN)NC(=O)[C@H](CCCCN)NC(=O)[C@@H](N)CCCCN,Jurkat,,,"25 µM, 1 h, 37 °C",cellular uptake of iridium,0.97 ± 0.18 fmol/cell
N=C(N)NCCC[C@@H]1NC(=O)[C@H](CCCCNC(=O)CC[C@H](NC(=O)CCOCCOCCOCCOCCNC(=O)CC[C@H](NC(=O)CN2CCN(CC(=O)O)CCN(CC(=O)O)CCN(CC(=O)O)CC2)C(=O)NCCOCCOCCOCCOCCC(=O)N[C@@H](CCC(=O)NCCCC[C@@H]2NC(=O)[C@@H](Cc3ccccc3)NC(=O)[C@H](CC(=O)O)NC(=O)CNC(=O)[C@H](CCCNC(=N)N)NC2=O)C(=O)NCCCC[C@@H]2NC(=O)[C@@H](Cc3ccccc3)NC(=O)[C@H](CC(=O)O)NC(=O)CNC(=O)[C@H](CCCNC(=N)N)NC2=O)C(=O)NCCCC[C@@H]2NC(=O)[C@@H](Cc3ccccc3)NC(=O)[C@H](CC(=O)O)NC(=O)CNC(=O)[C@H](CCCNC(=N)N)NC2=O)NC(=O)[C@@H](Cc2ccccc2)NC(=O)[C@H](CC(=O)O)NC(=O)CNC1=O [indium-111 labelled],,,"athymic nude mice, female, U-87 MG glioma xenograft, spleen","intravenous, 3 µCi, 24 h",tissue uptake,1.22 ± 0.44 %ID/g
CCCC[C@H](NC(=O)COCCOCCNC(=O)c1ccc(NN)nc1)C(=O)N[C@H]1CC(=O)NCCCC[C@@H](C(N)=O)NC(=O)[C@H](Cc2c[nH]c3ccccc23)NC(=O)[C@H](CCCNC(=N)N)NC(=O)[C@@H](Cc2ccccc2)NC(=O)[C@H](Cc2c[nH]cn2)NC1=O [technetium-99m labelled],,,"C57 mouse, female, B16/F1 melanoma, liver","intravenous, 0.037 MBq, 2 h",tissue uptake,0.33 ± 0.03 %ID/g
CN[C@](C)(C[18F])C(=O)O,A549 tumour model,,"host not given, bone","2 h, tumour-bearing",tracer uptake,1.2 %ID/g
CSCC[C@H](NC(=O)[C@H](CC(C)C)NC(=O)[C@H](Cc1c[nH]cn1)NC(=O)CNC(=O)[C@@H](NC(=O)[C@H](C)NC(=O)[C@H](Cc1c[nH]c2ccccc12)NC(=O)[C@H](CCC(N)=O)NC(=O)CNC(=O)[C@H](CO)NC(=O)CNC(=O)CCCCCCCNC(=O)CCC(=O)Nc1ccc(CNC23CNCCNCC(N)(CNCCNC2)CNCCNC3)cc1)C(C)C)C(N)=O [copper-64 labelled],,,"female SCID mice, PC-3 xenograft, spleen","intravenous, 0.6 MBq, 1 h",tissue uptake,1.51 ± 0.063 %ID/g
N=C(N)NCCC[C@@H]1NC(=O)[C@H](CC(=O)NC23CNCCNCC(N)(CNCCNC2)CNCCNC3)NC(=O)[C@@H](Cc2ccccc2)NC(=O)[C@H](CC(=O)O)NC(=O)CNC1=O [copper-64 labelled],,,"Nu/Nu mouse, male, tumour-bearing, blood","intravenous, 10 µCi, 24 h",tissue uptake,0.08 ± 0.01 %ID/g
CCCC[C@H](NC(=O)CNC(=O)CNC(=O)c1ccc(NN)nc1)C(=O)N[C@H]1CC(=O)NCCCC[C@@H](C(N)=O)NC(=O)[C@H](Cc2c[nH]c3ccccc23)NC(=O)[C@H](CCCNC(=N)N)NC(=O)[C@@H](Cc2ccccc2)NC(=O)[C@H](Cc2c[nH]cn2)NC1=O [technetium-99m labelled],,,"C57 mouse, B16/F1 melanoma-bearing, muscle","intravenous, 4 h",tissue uptake,0.04 ± 0.02 %ID/g
N=C(N)NCCC[C@@H]1NC(=O)[C@H](CCCCNC(=O)CCOCCOCCOCCOCCNC(=O)CC[C@H](NC(=O)CCOCCOCCOCCOCCNC(=O)CC[C@H](NC(=O)CN2CCN(CC(=O)O)CCN(CC(=O)O)CCN(CC(=O)O)CC2)C(=O)NCCOCCOCCOCCOCCC(=O)N[C@@H](CCC(=O)NCCOCCOCCOCCOCCC(=O)NCCCC[C@@H]2NC(=O)[C@@H](Cc3ccccc3)NC(=O)[C@H](CC(=O)O)NC(=O)CNC(=O)[C@H](CCCNC(=N)N)NC2=O)C(=O)NCCOCCOCCOCCOCCC(=O)NCCCC[C@@H]2NC(=O)[C@@H](Cc3ccccc3)NC(=O)[C@H](CC(=O)O)NC(=O)CNC(=O)[C@H](CCCNC(=N)N)NC2=O)C(=O)NCCOCCOCCOCCOCCC(=O)NCCCC[C@@H]2NC(=O)[C@@H](Cc3ccccc3)NC(=O)[C@H](CC(=O)O)NC(=O)CNC(=O)[C@H](CCCNC(=N)N)NC2=O)NC(=O)[C@@H](Cc2ccccc2)NC(=O)[C@H](CC(=O)O)NC(=O)CNC1=O [indium-111 labelled],,,"athymic nude mice, female, U-87 MG glioma xenograft, U-87 MG tumour","intravenous, 3 µCi, 72 h",tissue uptake,3.04 ± 0.39 %ID/g
CSCC[C@H](NC(=O)[C@H](CC(C)C)NC(=O)[C@H](Cc1c[nH]cn1)NC(=O)CNC(=O)[C@@H](NC(=O)[C@H](C)NC(=O)[C@H](Cc1c[nH]c2ccccc12)NC(=O)[C@H](CCC(N)=O)NC(=O)CCCCCNC(=O)CNC(=O)CNC(=O)CNC(=O)CSC(C)=O)C(C)C)C(N)=O [technetium-99m labelled],,,"nude mouse, PC-3 xenograft, heart",90 min,tissue uptake,0.1 ± 0.01 %ID/g
N=C(N)NCCC[C@@H]1NC(=O)[C@H](CCCCNC(=O)CNC(=O)CNC(=O)CNC(=O)CC[C@H](NC(=O)c2ccc(NN=Cc3ccccc3S(=O)(=O)O)nc2)C(=O)NCC(=O)NCC(=O)NCC(=O)NCCCC[C@@H]2NC(=O)[C@@H](Cc3ccccc3)NC(=O)[C@H](CC(=O)O)NC(=O)CNC(=O)[C@H](CCCNC(=N)N)NC2=O)NC(=O)[C@@H](Cc2ccccc2)NC(=O)[C@H](CC(=O)O)NC(=O)CNC1=O [technetium-99m labelled],,,"athymic nu/nu mouse, female, MDA-MB-435 xenograft, muscle","intravenous, 30 min",tissue uptake,3.13 ± 1.04 %ID/g
COC(=O)C1=CO[C@@H](OC(C)=O)[C@@H]2C(Cn3cc(CCCCN4C(=O)c5ccccc5C4=O)nn3)=CC[C@H]12,SK-N-SH,"neuroprotection, MTT",,"0.15 µM, 24 h, added: 250 µM H2O2",viability,51.7 ± 0.7%
N=C(N)NCCC[C@@H]1NC(=O)[C@H](CCCCNC(=O)CCOCCOCCOCCOCCNC(=O)CN2CCN(CC(=O)O)CCN(CC(=O)O)CCN(CC(=O)O)CC2)NC(=O)[C@@H](Cc2ccccc2)NC(=O)[C@H](CC(=O)O)NC(=O)CNC1=O [indium-111 labelled],,,"female athymic nude mice, kidney","intravenous, 3 µCi, 1 h, U-87 MG glioma xenograft",tissue uptake,3.93 ± 0.09 %ID/g
C[C@@H](O)[C@H](NC(=O)[C@@H]1CSSC[C@H](NC(=O)[C@@H](Cc2ccccc2)NC(=O)CN2CCCN3CCN(CCCN(CP(=O)(O)O)CC3)CC2)C(=O)N[C@@H](Cc2ccc(O)cc2)C(=O)N[C@H](Cc2c[nH]c3ccccc23)C(=O)N[C@@H](CCCCN)C(=O)N[C@@H]([C@@H](C)O)C(=O)N1)C(=O)O [copper-64 labelled],,,"Lewis rat, male, tumour-bearing, adrenals","injection, 4 h, added: Y3-TATE 200 µg co-injected",tissue uptake,0.2 ± 0.02 %ID/g
CCN(Cc1ccccc1)C(=O)CCc1nc(CN2CCN(C(=O)Cc3ccc(OC)c(OC)c3)CC2)no1,"SCN9A (Homo sapiens, UniProt Q15858)",whole-cell patch clamp,HEK stable,3 µM,V1/2 of activation,-42.8 ± 1.71 mV

# Repeated from above:
Compound,tested on,test,test system,conditions,endpoint,value
N=C(N)NCCC[C@@H]1NC(=O)[C@H](CCCCNC(=O)CCOCCOCCOCCOCCNC(=O)CN2CCN(CC(=O)O)CCN(CC(=O)O)CCN(CC(=O)O)CC2)NC(=O)[C@@H](Cc2ccccc2)NC(=O)[C@H](CC(=O)O)NC(=O)CNC1=O [indium-111 labelled],,,"female athymic nude mice, kidney","intravenous, 3 µCi, 1 h, U-87 MG glioma xenograft",tissue uptake,3.93 ± 0.09 %ID/g
C[C@@H](O)[C@H](NC(=O)[C@@H]1CSSC[C@H](NC(=O)[C@@H](Cc2ccccc2)NC(=O)CN2CCCN3CCN(CCCN(CP(=O)(O)O)CC3)CC2)C(=O)N[C@@H](Cc2ccc(O)cc2)C(=O)N[C@H](Cc2c[nH]c3ccccc23)C(=O)N[C@@H](CCCCN)C(=O)N[C@@H]([C@@H](C)O)C(=O)N1)C(=O)O [copper-64 labelled],,,"Lewis rat, male, tumour-bearing, adrenals","injection, 4 h, added: Y3-TATE 200 µg co-injected",tissue uptake,0.2 ± 0.02 %ID/g
